Measurements collected from several papers.
Each numbered part is a random draw from the data of one study; scales do not carry over between parts.

Sample 1
Target: Sal-like protein 4, full length isoform B (SALL4, Homo sapiens, UniProt Q9UJQ4-2, residues 1-616)
Method: universal PBM
Molecule type: double-stranded DNA, one strand shown
Medium: in vitro
Concentration: not given
Notes: 8-mer, flanks averaged, mean of replicates
Reading: higher = stronger binding
Measurement: E-score
ACGTCGCA: -0.182
ACATACGG: -0.0599
AGCATCCC: -0.132
CCGTATCC: -0.145
GATGCGAA: 0.163
CAAGTAAG: 0.12
CTCCTAGA: -0.0772
CGCACTGC: -0.201
GGTGGAAA: -0.139
GCTGCAAA: 0.127
AAAATTCC: 0.168
CATCTGGC: -0.107
GACCGACC: -0.293
GTGTACAA: 0.191
TAGCACCA: 0.0089
CCGCCGTA: -0.231
AGATGAAT: 0.164
AGGTAATG: 0.0364

Sample 2
Target: Histone acetyltransferase KAT6A, winged helix 2, GST fusion (KAT6A, Homo sapiens, UniProt Q92794, residues 85-181)
Method: protein binding microarray
Molecule type: double-stranded DNA, one strand shown
Medium: in vitro
Concentration: not given
Notes: 8-mer, flanks averaged, mean of 2 arrays, mostly near background
Baseline: not given
Reading: higher = stronger binding
Measurement: E-score
Construct (chain): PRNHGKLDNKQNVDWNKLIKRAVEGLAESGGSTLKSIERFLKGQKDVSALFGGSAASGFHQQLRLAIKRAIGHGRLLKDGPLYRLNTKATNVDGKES
CCGAATGC: 0.084
GATGTCCA: 0.101
ATGCTCCA: 0.026
AAGGCCGG: 0.117
CCATATCA: 0.0299
ATCGTACA: -0.138
ACAGATTG: -0.103
ATAACTCA: -0.101
CACCGGGA: -0.0421
ATTTGTTC: 0.0505
TTACATAA: 0.00123
ATCTCTGG: 0.101
CGATCGTA: -0.0881
GATAGGGA: -0.0364
AATTAGGC: 0.126
GTTTTCCA: 0.00352
ATTGATAA: 0.114
ACCTGGAG: 0.013
GGGTTAAC: 0.0936
GCCTATCC: -0.161
TAACTTAA: 0.155
ACGTGCAC: -0.291
GCGGGCAA: 0.155
ATGATTAG: -0.0442
AGTCCCCC: -0.229

Sample 3
Target: RNA binding protein fox-1 homolog 2, RRM domain, GST-SBP tag (RBFOX2, Homo sapiens, UniProt O43251-10, residues 100-194)
Method: RNA Bind-n-Seq
Molecule type: RNA
Medium: in vitro
Concentration: 365 nM
Notes: natural RNA segment, single round, ends assumed
Baseline: no-protein control
Reading: higher = stronger binding
Measurement: RBNS enrichment (R)
All sequences stand within: GGGAGUUCUACAGUCCGACGAUC … UGGAAUUCUCGGGUGCCAA
Construct (chain): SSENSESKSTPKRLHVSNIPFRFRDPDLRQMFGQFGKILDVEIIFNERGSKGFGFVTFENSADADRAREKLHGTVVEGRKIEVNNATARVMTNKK
GCUUCAUUGCCAUGUUCUGUGGGUGUUUGGCAGGUUACCGAUGGGGAAGAUUCUUGUCACAGAAUCAGCAAUACCAUAGUUUUUCUACAUGUGCUCAGCUGGGGGUGUGG: 0.613
AAAAUAUUUUUAGCAGAACAGGACUUACAGGGUCAUUGUCCCCACAAUGUGCCAGUCGGCUCUUUGCACUCGCCUUGUCCUAUAUAUCCGUACGGAGGUGUGCAAUCCUG: 0.368
UCACCCCCUUCUGUGCAUCUUAGGAAUGAAAUGGUUGCUGUGUGCAGGUCAGGUUAAUGGAAGAACGAGUCUGGUGGUAUAGCGUGGUUUGAGAGAUGUCUUUCAGUUUU: 4.05
AUUAUAGAACCAACGGAAAUAUGGGCACUAUUUUGAAUUCUAGAGAUGGUUUUUGUUAAAUCUACUAAUAAACUGUUCUCUUAGUAGAUUAAGAGAGAGUAAUAUUAAUU: 0.536
UGGACUUGUAUGGGAUUGUCUUCUUGAUUUGAAUUGUACCGUCUUUGUUGACACAGUAGGGCUGGGCAGUGUUUAAUCCUUCCAUUUUAUAGAUUUUUUUUUAAUCAGGC: 0.864
UCCUCCAGCACUUUCUUUCCGCCUGAGUCCAGCCCAAGGCCUUUUAUUUUGCGCUGUGUAACUGCUGCCAGCUUCUCUCUUGGCCCUGCUCCCAGAUGGCGGUCUCCUGG: 1
GAUUCCACUCAGAACCUCUUUCUAAAGUUUUUGCCUGAUGUGUCUUCACUGGAUUUUGGGGUUCCCAGCACCCCAUGUAGAUUUGGGGGUUUCUUUUUGUCUCCCCCACU: 0.388
CAUGGUAGUGGCAAAGAGAGGUCCAGAGUCCUGGCCCUUGAUGCCCAGCUCAGUGCCACAAAGCUCAAUAGGAGGGAUGUUCCAGUGGAUGAGGGCCACCAGGAAGCACA: 0.808
AUGCUAAGUCAAAACGGCCCUUAGUCACGACCUUGUUGUGGCCCCUCCCUUGUCAUCAGUAGUAACCUAUACUCAAGUGCCUGUGUCUUCUCAUCUCACUUAGGAUUGUA: 0.347
UGCUGUUGACCAGGUAGGCGCAAGUCUUACCAGUGUGGGUCGGGACCAACCUGUUUUCUUCCUCACUUGAAAUUGUACUUUCUGAAAUUUCAAGCAAAUUAAAAACAAUA: 0.501
CGUGGGGAUCUGGGAGCUGGCACUGUGUACACCUGUCCCUGACUGUCCACGUCUCCCGUGAUUGCCAGUGCUAAUAUGGCUGGGGCUGAGACUUUGCAAGGCCUAAUGCC: 0.983
UCUAUCCCAGUUGGGUUCAGACUGCUGUGACUGUGGACACGAUGCUCCUUGUUCUGGGCUCCAGUUUUCCCAUUUGUGAGAUGAGGCAACUUCCAAUGCUUCUCUAGGCC: 0.209

Sample 4
Target: Interferon regulatory factor 7, full length, phosphomimetic (IRF7, Homo sapiens, UniProt Q92985, residues 1-503, S471D/S472D/S475D/S476D/S477D/S483D/S484D/S487D)
UniProt Q92985, sequence (whole entry, unmodified, looked up): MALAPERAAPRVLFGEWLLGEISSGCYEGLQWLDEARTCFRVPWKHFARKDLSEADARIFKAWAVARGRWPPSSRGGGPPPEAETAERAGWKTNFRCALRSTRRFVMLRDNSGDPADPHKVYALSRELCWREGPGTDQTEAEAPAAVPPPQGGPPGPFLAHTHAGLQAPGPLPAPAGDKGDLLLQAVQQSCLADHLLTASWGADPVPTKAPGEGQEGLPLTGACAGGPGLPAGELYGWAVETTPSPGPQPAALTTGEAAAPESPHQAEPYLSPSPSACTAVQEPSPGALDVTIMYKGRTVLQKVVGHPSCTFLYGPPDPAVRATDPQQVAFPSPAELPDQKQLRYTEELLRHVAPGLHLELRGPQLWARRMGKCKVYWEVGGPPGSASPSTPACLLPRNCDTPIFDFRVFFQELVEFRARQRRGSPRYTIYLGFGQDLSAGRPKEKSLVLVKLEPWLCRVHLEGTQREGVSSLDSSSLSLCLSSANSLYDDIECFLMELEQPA
Method: protein-binding microarray
Molecule type: double-stranded DNA, one strand shown
Medium: in vitro
Concentration: 2200 nM top
Notes: 60-bp whole probe
Together with: salmon DNA 0.4 mg/ml
Baseline: random background probes
Reading: higher = stronger binding
Measurement: fitted relative affinity
All sequences stand within: GCCTAGCAC … GTCTTGATTCGCTTGACGCTGCTG
TTAGGTATCGGACTGGGATAGTGCTAG: -0.123 z-score
CCCTTATTCTAGCCTCCATTTGTGCTA: 1.67 z-score
TCATTTCAGTTTCTCTTACTGTGCTAG: 4.18 z-score
TTAGGACTGCACTATCGGTTAGTGCTA: 0.126 z-score
GACGGTATCGAGACTGGGGACGTGCTA: -0.359 z-score
GACGGACTGGGGACTGGAGACGTGCTA: -0.838 z-score
CACGGTTTCGACTATCGGGACGTGCTA: 3.91 z-score
TTAGATCTCATTTTCGATTAGTGCTAG: 5.73 z-score
GACGGTTTCGGGTTACGGGACGTGCTA: 11.9 z-score
TCAATGATCTCTCTGGGACTGTGCTAG: 0.118 z-score
CTTTAGAGCAAGAACAGCCTGTGCTAG: -0.729 z-score
GCAGGGCTCTCTTCTGCTTCCGTGCTA: -0.298 z-score
TCACAAAAATGATTGGTACTGTGCTAG: -0.262 z-score
GACGGTTTCCTTTTCTTGACGTGCTAG: 4.64 z-score
TCTATTTTCTGAATGTCTTCGTGCTAG: 4.45 z-score
CCGAGAAACAGTAACCCTCTGTGCTAG: -0.0257 z-score
GACGGACTGCATCTCCTGACGTGCTAG: 0.392 z-score
TAAGGTATCGGTTTCGGTTAGTGCTAG: 7.13 z-score
GGCGGTTTCGGTTCCGGGACGTGCTAG: 11.8 z-score
TTAGGACTGGGGTTTCGGCTAGTGCTA: 0.302 z-score
TTAGAACTGGGATATCGATTAGTGCTA: -0.373 z-score
CTGATCCTTCATTTGAAAGAGTGCTAG: 1.14 z-score
TCAAGTTTCTCAACCACACTGTGCTAG: 0.995 z-score
TACTTTCTATCTCTGTTTTTGTGCTAG: 7.47 z-score
TCAGATTTCGATTACAAACTGTGCTAG: 2.67 z-score

Excerpt of the above (sample 2):
GCCTATCC: -0.161
CCATATCA: 0.0299
CCGAATGC: 0.084
GGGTTAAC: 0.0936
GATAGGGA: -0.0364
AAGGCCGG: 0.117
AATTAGGC: 0.126
ATGATTAG: -0.0442
ACGTGCAC: -0.291
ATTGATAA: 0.114
GTTTTCCA: 0.00352
